# Assay results from different studies.
# Lines come from different studies, so protocols differ. ± marks the error that the study gave.
# Organism: HIV-1
SMILES,test,test system,conditions,quantity,value
Cc1cn([C@H]2C[C@H](N=[N+]=[N-])[C@@H](CO)O2)c(=O)[nH]c1=O,virus neutralization,BG505,,IC50,84 ± 1.8 nM
CC(=NNC(=O)CN1c2c(-c3ccccc3)n[nH]c2-c2ccccc2S1(=O)=O)c1ccsc1,viral replication,PBMC,,EC90,89300 nM
Cc1cn([C@H]2C[C@H](N=[N+]=[N-])[C@@H](CO)O2)c(=O)[nH]c1=O,viral replication,"PBMC, LAI",,EC90,15 nM
Cc1nc(C(NC(=O)c2ccc(-c3ccc(Cl)cc3)[nH]2)C2CCCCN2)sc1CO (mixture of isomers),viral entry,"TZM-bl, panel of 56 Env pseudoviruses",up to 2 µM,sensitive viruses,39%
CC(=NNC(=O)CN1c2c(-c3ccccc3)n[nH]c2-c2ccccc2S1(=O)=O)c1sccc1C,viral replication,PBMC,,EC90,> 100000 nM
N#C[C@]1(CO)O[C@@H](n2cnc3c(=O)[nH]c(N)nc32)C[C@@H]1O,,NL4-3 wild type,,IC50,0.042 nM
Cc1ccc(N2C(=O)CCC2(CN)c2ccccc2)cc1 (stereo not shown),viral replication,"human PBMC, LAI",,EC90,> 100000 nM
CC(=NNC(=O)CN1c2c(-c3ccccc3)n[nH]c2-c2ccccc2S1(=O)=O)c1ccc(Br)s1,viral replication,PBMC,,EC90,> 100000 nM
CC[C@H](C)[C@H](NC(=O)[C@H](CC(C)C)NC(=O)[C@H](CCC(=O)O)NC(=O)[C@H](CCC(=O)O)NC(=O)[C@@H](NC(=O)[C@H](CCCCN)NC(=O)[C@H](CCCCN)NC(=O)[C@@H](NC(=O)[C@H](Cc1ccc(O)cc1)NC(=O)[C@H](CCC(=O)O)NC(=O)[C@H](CCC(=O)O)NC(=O)[C@@H](NC(=O)[C@H](CCCCN)NC(=O)[C@H](CCCCN)NC(=O)[C@H](CC(=O)O)NC(=O)[C@H](Cc1c[nH]c2ccccc12)NC(=O)[C@H](CCC(=O)O)NC(=O)[C@H](CCC(=O)O)NC(=O)[C@H](Cc1c[nH]c2ccccc12)NC(=O)[C@@H](NC(=O)[C@@H](N)CCSC)[C@@H](C)O)[C@@H](C)CC)[C@@H](C)O)[C@@H](C)CC)C(=O)N[C@@H](CCCCN)C(=O)N[C@@H](CCCCN)C(=O)N[C@@H](CO)C(=O)O,virus neutralization,CZA97,,IC50,6.8 ± 1.6 nM
CC(C)OC(=O)OCOP(=O)(CO[C@H](C)Cn1cnc2c(N)ncnc21)OCOC(=O)OC(C)C,"viral replication, MTT",MT4,,IC50,580 ± 390 nM
